# Measured values from different studies.
# Parts stem from different laboratories: compare values within a part only. Several values in a cell are separate wells, animals, samples, runs or records.
# Chain of UniProt P28335 (whole entry, looked up): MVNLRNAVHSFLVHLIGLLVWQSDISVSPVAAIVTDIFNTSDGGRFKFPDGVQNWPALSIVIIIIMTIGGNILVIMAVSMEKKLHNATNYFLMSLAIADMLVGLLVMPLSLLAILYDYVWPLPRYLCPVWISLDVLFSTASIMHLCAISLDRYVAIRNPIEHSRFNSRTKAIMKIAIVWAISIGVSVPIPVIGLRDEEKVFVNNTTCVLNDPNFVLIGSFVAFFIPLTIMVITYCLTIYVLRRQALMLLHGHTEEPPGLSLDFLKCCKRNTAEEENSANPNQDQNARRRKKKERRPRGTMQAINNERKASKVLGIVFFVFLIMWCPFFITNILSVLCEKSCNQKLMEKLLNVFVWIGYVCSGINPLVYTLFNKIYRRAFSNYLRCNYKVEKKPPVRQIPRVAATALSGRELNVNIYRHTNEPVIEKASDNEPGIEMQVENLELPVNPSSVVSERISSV
# Chain of UniProt P41143 (whole entry, looked up): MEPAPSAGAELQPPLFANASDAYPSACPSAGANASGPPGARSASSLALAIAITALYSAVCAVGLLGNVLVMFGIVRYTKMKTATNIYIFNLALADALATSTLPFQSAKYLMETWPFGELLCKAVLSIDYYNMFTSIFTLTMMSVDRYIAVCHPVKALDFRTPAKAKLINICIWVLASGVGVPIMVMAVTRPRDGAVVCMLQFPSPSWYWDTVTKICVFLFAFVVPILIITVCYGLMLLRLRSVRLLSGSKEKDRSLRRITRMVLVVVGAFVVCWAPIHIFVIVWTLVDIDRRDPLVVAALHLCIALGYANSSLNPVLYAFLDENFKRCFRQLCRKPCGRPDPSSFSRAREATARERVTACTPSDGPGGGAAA
# Chain of UniProt P11229 (whole entry, looked up): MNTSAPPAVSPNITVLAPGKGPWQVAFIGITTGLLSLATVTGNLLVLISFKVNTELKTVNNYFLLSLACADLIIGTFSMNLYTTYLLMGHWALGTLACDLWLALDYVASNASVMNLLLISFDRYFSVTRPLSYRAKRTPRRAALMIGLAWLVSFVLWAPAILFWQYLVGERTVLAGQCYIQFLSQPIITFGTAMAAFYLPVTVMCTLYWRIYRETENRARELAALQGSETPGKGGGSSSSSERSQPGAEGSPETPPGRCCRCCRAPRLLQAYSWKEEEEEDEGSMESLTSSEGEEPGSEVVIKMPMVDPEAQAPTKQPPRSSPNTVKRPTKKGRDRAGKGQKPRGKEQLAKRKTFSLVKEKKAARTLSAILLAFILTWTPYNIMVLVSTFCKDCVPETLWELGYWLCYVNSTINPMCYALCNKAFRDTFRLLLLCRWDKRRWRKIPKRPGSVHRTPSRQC

# Block 1
# Molecule: meglumine antimoniate
# Organism: Leishmania infantum chagasi
# Technique: qPCR
# Species: golden hamster chronic infection
# Route: intraperitoneal
# Dose: 50 mg/kg/day
# Time: 10 days
# Reference: microglobulin
refers to,medium,delta Ct
TNF mRNA,liver,8.05 cycles and 8.72 cycles and 8.62 cycles and 9.75 cycles and 8.68 cycles and 9.23 cycles
TNF mRNA,spleen,5.38 cycles and 5.69 cycles and 6.68 cycles and 6.46 cycles and 4.87 cycles and 5.91 cycles
IL17 mRNA,spleen,12.7 cycles and 12.4 cycles and 11.5 cycles and 14 cycles and 13.4 cycles and 12.1 cycles
TGF-β mRNA,spleen,2.02 cycles and 2.46 cycles and 1.94 cycles and 1.05 cycles and 2.42 cycles and 1.65 cycles
IL10 mRNA,spleen,8.58 cycles and 8.32 cycles and 8.78 cycles and 8.04 cycles and 7.11 cycles and 8.05 cycles

# Block 2
# Structure (SMILES): CNC(=O)c1cc(C(=O)N[C@H]2[C@@H]3COC[C@@H]32)cc2c1O[C@H](CF)[C@H]2c1ccccc1
# Concentration: 10 µM
target,effect on,technique,inhibition [%]
"OPRD1 (Homo sapiens, UniProt P41143)",binding,radioligand binding,2.46
"CHRM1 (Homo sapiens, UniProt P11229)",binding,radioligand binding,-14.7
"HTR1A (Homo sapiens, UniProt P08908)",cell-free assay,,8.96
"HTR2C (Homo sapiens, UniProt P28335)",binding,radioligand binding,22.2

# Block 3
# Target: HLA class I histocompatibility antigen, A alpha chain, allele A*80:01 (Homo sapiens, UniProt P04439)
# Effect on: peptide-MHC binding
# Molecule type: peptide
# Concentration: concentration not given
Molecule,binding
PLTNQRYRV,inactive
ESMMGSTAM,inactive
LQKIPLQWF,inactive
KCRVKMEKL,inactive
LTIVFVPEV,inactive
LSDAARLFL,inactive
MANIFRGSY,inactive
GLYLYRFHV,inactive

# Further values, each from its own experiment
Structure (SMILES),cell line,technique,concentration,measurement,value
C=C(C#N)CN1CCN(CC(=C)C#N)CC1,HEK-293T-ACE2-TMPRSS2,cell count,10 µM,viability,70%
